Measurements of several laboratories.
Protocols differ between the studies behind these lines.

Compound = CO/N=C(\C(=O)N[C@@H]1C(=O)N2C(C(=O)O)=C(COC(C)=O)CS[C@H]12)c1csc(N)n1; test = LC-MS/MS; system = human patients, plasma; setting = dose not given, therapeutic drug monitoring, median; endpoint = total plasma concentration; value = 15 mg/L
Compound = O=C(/C=C/c1cccc(S(=O)(=O)Nc2ccccc2)c1)NO; system = human, plasma; setting = 2000 mg/m^2, cycle 1 day 1, mean; endpoint = total clearance; value = 27.1 L/h/m²
Compound = N#Cc1ccc2c(c1)[C@H]1CCCN(C(=O)c3ccc4[nH]cnc4c3)[C@H]1C2; system = human males; setting = 40 mg, day 15; endpoint = total testosterone level; value = 14.6 nmol/L
Compound = N#Cc1cccc(-c2ccc3ncc(-c4cc(F)cc(F)c4)c(N4CCC(N)CC4)c3c2)c1O; system = human, male, urine and faeces; setting = oral, 20 mg, 48 h, single dose, mean; how to read = baseline: dose; endpoint = total radioactivity recovered; value = 44.1%
Compound = Cc1onc(-c2ccccc2Cl)c1C(=O)N[C@@H]1C(=O)N2[C@@H]1SC(C)(C)[C@@H]2C(=O)O; test = LC-MS/MS; system = human patients, plasma; setting = dose not given, therapeutic drug monitoring, median; endpoint = total plasma concentration; value = 10 mg/L
Compound = Nc1nc2cc(-c3ccc4ncc(C(=O)N5CCOCC5)n4c3)ccc2o1; system = human, plasma; setting = oral, dose not given, 1 week; how to read = baseline: 900 mg once daily over 150 mg; endpoint = total weekly exposure ratio; value = ~4
Compound = N#CCNC(=O)c1ccc(-c2ccnc(Nc3ccc(N4CCOCC4)cc3)n2)cc1; test = population PK model, NONMEM; system = human, plasma; setting = oral, typical value, final model; endpoint = total V/F; value = 383 L
Compound = Cc1c(C(=O)O)ccc2c3n(nc12)[C@@H]1[C@H](C3)N(CC2CC2)[C@@]2(C(=O)Nc3cc(Cl)ccc32)[C@H]1c1cccc(Cl)c1F; system = human glioblastoma, tumor tissue; endpoint = total tumor concentration; value = 130 nmol/L
Compound = C=CC(=O)N(C)CCOc1c(N)ncnc1-c1cc(F)cc(NC(=O)c2ccc(C3CC3)cc2F)c1C; system = human, whole blood; setting = intravenous, 100 µg, uninhibited microdose; endpoint = total clearance; value = 1200 mL/min
Compound = COc1cc(C(=O)N2CCC3(CC2)CC(=O)c2c(cnn2C(C)C)C3)cc(-c2ccc(C(=O)O)cc2)n1; system = human, fasting serum; setting = 100 mg once daily, day 13, adjusted geometric mean; how to read = baseline: placebo; endpoint = total cholesterol change from baseline; value = -7.6%
Compound = C[C@@H](Oc1ccc(S(C)(=O)=O)cc1C(=O)N1C[C@@H]2C[C@]2(c2cc(C(F)(F)F)on2)C1)C(F)(F)F; test = refers to: 14C radioactivity; system = human, urine and faeces; setting = oral, 25 mg, 0 to 677 h, geometric mean; how to read = baseline: dose; endpoint = total recovery; value = 96.7%

Repeated from above:
Compound = C[C@@H](Oc1ccc(S(C)(=O)=O)cc1C(=O)N1C[C@@H]2C[C@]2(c2cc(C(F)(F)F)on2)C1)C(F)(F)F; test = refers to: 14C radioactivity; system = human, urine and faeces; setting = oral, 25 mg, 0 to 677 h, geometric mean; how to read = baseline: dose; endpoint = total recovery; value = 96.7%
